Results from different studies.
Every numbered part comes from another study and shows a few of its results, in no order. Changes are numbered by the printed parent chain.

Sample 1 — technique: universal PBM; form: double-stranded DNA, one strand shown; medium: in vitro; tested at: 600 nM; reading: higher = stronger binding
Target: Sal-like protein 4, full length isoform A (SALL4, Homo sapiens, UniProt Q9UJQ4, residues 1-1053)
Chain of UniProt Q9UJQ4 (whole entry, looked up): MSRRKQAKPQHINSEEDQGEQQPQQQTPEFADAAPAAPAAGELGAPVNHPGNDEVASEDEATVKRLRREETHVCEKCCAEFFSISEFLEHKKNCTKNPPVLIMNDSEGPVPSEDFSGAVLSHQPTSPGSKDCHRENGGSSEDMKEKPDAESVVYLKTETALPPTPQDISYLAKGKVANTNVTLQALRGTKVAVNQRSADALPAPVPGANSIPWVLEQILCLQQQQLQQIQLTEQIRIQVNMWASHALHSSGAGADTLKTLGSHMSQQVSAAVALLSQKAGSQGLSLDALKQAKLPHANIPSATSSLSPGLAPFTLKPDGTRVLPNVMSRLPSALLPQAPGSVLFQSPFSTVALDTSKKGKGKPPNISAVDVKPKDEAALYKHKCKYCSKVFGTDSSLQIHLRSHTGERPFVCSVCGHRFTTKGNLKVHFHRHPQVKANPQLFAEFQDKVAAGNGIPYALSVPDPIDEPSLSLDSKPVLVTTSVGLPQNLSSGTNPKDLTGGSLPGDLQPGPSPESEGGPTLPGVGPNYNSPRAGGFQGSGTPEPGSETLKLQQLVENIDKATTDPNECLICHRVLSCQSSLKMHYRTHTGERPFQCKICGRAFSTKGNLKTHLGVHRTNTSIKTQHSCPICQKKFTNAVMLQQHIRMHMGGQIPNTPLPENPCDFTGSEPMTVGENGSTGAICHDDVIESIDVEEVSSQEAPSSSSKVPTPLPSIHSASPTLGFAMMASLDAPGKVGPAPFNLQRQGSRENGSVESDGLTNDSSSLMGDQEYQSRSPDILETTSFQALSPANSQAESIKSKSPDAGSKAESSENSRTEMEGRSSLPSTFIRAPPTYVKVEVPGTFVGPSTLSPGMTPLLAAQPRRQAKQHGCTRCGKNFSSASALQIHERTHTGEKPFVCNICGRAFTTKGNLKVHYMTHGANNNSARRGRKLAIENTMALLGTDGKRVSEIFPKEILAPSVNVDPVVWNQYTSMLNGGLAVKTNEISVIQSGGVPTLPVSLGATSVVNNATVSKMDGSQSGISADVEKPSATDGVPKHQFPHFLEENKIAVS
Notes: 8-mer, flanks averaged, mean of replicates
Sequence | E-score
CGGTCGGA | -0.351
CTTGAAAG | 0.00812
AACAGTTC | 0.13
GAAAGGCA | 0.171
GCCGAGGA | -0.161
AACGATAT | 0.31

Sample 2 — target: ATF5, bZIP domain (human); technique: DHFR protein complementation; medium: yeast; reference: wild-type JUN-FOS pair; reading: higher = stronger binding
Notes: single substitutions, most at no-binding floor
Parent: JUN, bZIP domain (human); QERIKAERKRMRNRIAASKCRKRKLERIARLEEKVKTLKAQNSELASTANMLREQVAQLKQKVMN; partner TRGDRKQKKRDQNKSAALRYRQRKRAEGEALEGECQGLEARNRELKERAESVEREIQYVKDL
Variant | binding fitness [natural log]
R53H | -1.49
E32L | -1.36
K39V | -1.45
A46N | -1.47

Sample 3 — technique: protein binding microarray; form: double-stranded DNA, one strand shown; medium: in vitro; tested at: not given; reference: not given; reading: higher = stronger binding
Target: Histone acetyltransferase KAT6A, winged helix 2, GST fusion (KAT6A, Homo sapiens, UniProt Q92794, residues 85-181)
Notes: 8-mer, flanks averaged, mean of 2 arrays, mostly near background
Residues (chain): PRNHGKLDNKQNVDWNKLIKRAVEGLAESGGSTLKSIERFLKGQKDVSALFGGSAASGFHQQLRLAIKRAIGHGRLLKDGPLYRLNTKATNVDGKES
Sequence | E-score
CCGCGAAC | 0.117
GAACCAAC | 0.0917
TGTCCAAA | 0.0488
GTCCTAAA | -0.0332
CAACTGCA | 0.119
CGTGAGGC | -0.0243

Single results of other studies
Molecule | target | test | test system | conditions | scale | quantity | value
PhoQ, residues 284 288 289 292 302 303 AGGCYF | PhoP, residues 12 14 15 18 19 LWHVM (Escherichia coli, UniProt P23836) | Sort-seq, measured: YFP reporter | E. coli | PhoQ-PhoP variant library, with: 10 µM Mg2+ | reference: high Mg2+ state, higher = stronger signaling | fold induction | 20.6
